{"data": "Results gathered from unrelated publications", "note": "Numbered parts are unrelated; each lists some results of a single study. Changes are numbered by the printed parent chain."}
{"data": "Sample 1", "target": "CCNB1, cyclin fold, Cln2 fusion (human)", "method": "yeast growth competition, sequencing", "matrix": "yeast", "notes": "strong parent motif", "baseline": "not given", "direction": "higher = stronger binding", "starting sequence": "PKN2 docking peptide (human); VSAVQKLDFSDTM; partner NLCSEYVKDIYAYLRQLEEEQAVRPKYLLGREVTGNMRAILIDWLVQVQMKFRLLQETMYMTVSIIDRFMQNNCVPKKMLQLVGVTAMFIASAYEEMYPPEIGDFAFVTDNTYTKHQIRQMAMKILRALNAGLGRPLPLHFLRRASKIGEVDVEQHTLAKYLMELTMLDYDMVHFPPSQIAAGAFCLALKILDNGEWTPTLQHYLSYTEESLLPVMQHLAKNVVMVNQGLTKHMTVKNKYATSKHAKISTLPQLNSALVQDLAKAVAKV"}
{"Substitution": "D11S", "normalised enrichment score": 1.08}
{"Substitution": "K6G", "normalised enrichment score": 0.821}
{"Substitution": "K6W", "normalised enrichment score": 0.757}
{"Substitution": "M13Y", "normalised enrichment score": 1.91}
{"Substitution": "D8E", "normalised enrichment score": 1.33}
{"Substitution": "V4Y", "normalised enrichment score": 0.225}
{"Substitution": "V1Y", "normalised enrichment score": 2.55}
{"Substitution": "V4C", "normalised enrichment score": 0.844}
{"Substitution": "D8V", "normalised enrichment score": 1.37}
{"Substitution": "D8Y", "normalised enrichment score": 1.59}
{"Substitution": "Q5A L7A", "normalised enrichment score": 0.149}
{"Substitution": "K6E", "normalised enrichment score": 0.274}
{"Substitution": "M13A", "normalised enrichment score": 1.57}
{"Substitution": "K6F", "normalised enrichment score": 0.74}
{"Substitution": "D8G", "normalised enrichment score": 0.758}
{"Substitution": "V4D", "normalised enrichment score": 0.211}
{"Substitution": "A3C", "normalised enrichment score": 2.86}
{"Substitution": "V1T", "normalised enrichment score": 2.07}
{"Substitution": "M13K", "normalised enrichment score": 1.9}
{"Substitution": "V1K", "normalised enrichment score": 2.21}
{"Substitution": "A3I", "normalised enrichment score": 2.98}
{"Substitution": "V4F", "normalised enrichment score": 0.607}
{"Substitution": "F9G", "normalised enrichment score": 0.0539}
{"Substitution": "S2A", "normalised enrichment score": 1.92}
{"Substitution": "S2N", "normalised enrichment score": 1.75}
{"data": "Sample 2", "target": "ABI1, truncated, D143A, DHFR fusion (Arabidopsis thaliana)", "method": "DHFR PCA, deep sequencing", "matrix": "yeast", "notes": "methotrexate growth selection, single substitutions", "with": "(+)-ABA 4.8 µM", "baseline": "wild-type fitted maximum", "direction": "higher = stronger binding", "starting sequence": "PYL1, truncated, DHFR fusion (Arabidopsis thaliana); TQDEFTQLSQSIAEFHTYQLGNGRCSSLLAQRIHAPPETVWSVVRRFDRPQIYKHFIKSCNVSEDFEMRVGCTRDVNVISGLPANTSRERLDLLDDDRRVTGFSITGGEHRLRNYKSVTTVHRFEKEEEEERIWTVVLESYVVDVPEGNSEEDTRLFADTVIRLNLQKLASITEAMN"}
{"Substitution": "L164M", "relative binding score [%]": 80.1}
{"Substitution": "R111S", "relative binding score [%]": 4.06}
{"Substitution": "T119D", "relative binding score [%]": 4.08}
{"Substitution": "K54C", "relative binding score [%]": 4.6}
{"Substitution": "Q167C", "relative binding score [%]": 59.2}
{"Substitution": "P37M", "relative binding score [%]": 23.7}
{"Substitution": "E127R", "relative binding score [%]": 75.7}
{"Substitution": "A30R", "relative binding score [%]": 58.9}
{"Substitution": "R111N", "relative binding score [%]": 8.88}
{"Substitution": "D95S", "relative binding score [%]": 15}
{"Substitution": "A13C", "relative binding score [%]": 53.5}
{"Substitution": "R163K", "relative binding score [%]": 80.2}
{"Substitution": "T73M", "relative binding score [%]": 80.6}
{"Substitution": "H122I", "relative binding score [%]": 0.585}
{"Substitution": "G81H", "relative binding score [%]": -10.3}
{"Substitution": "N77H", "relative binding score [%]": 85.9}
{"Substitution": "L29C", "relative binding score [%]": 39.2}
{"data": "Sample 3", "target": "Histone acetyltransferase KAT6A, winged helix 1, GST fusion (KAT6A, Homo sapiens, UniProt Q92794, residues 1-85)", "method": "protein binding microarray", "molecule type": "double-stranded DNA, one strand shown", "matrix": "in vitro", "tested at": "not given", "notes": "8-mer, flanks averaged, mean of 2 arrays, mostly near background", "baseline": "not given", "direction": "higher = stronger binding", "Residues (chain)": "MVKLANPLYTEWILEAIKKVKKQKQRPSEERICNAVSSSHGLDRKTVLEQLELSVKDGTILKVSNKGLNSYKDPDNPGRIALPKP"}
{"Oligonucleotide": "GCGAGCGC", "E-score": 0.385}
{"Oligonucleotide": "GCCATGAA", "E-score": -0.0867}
{"Oligonucleotide": "ACGCGGGC", "E-score": 0.374}
{"Oligonucleotide": "AGTACCAC", "E-score": -0.18}
{"Oligonucleotide": "AAGTGGCC", "E-score": -0.168}
{"Oligonucleotide": "TACCCCTA", "E-score": -0.244}
{"Oligonucleotide": "GCCTATGA", "E-score": 0.0728}
{"Oligonucleotide": "GGTCTTCA", "E-score": -0.0174}
{"Oligonucleotide": "GCACACGC", "E-score": 0.188}
{"Oligonucleotide": "TCGGCCGA", "E-score": 0.363}
{"Oligonucleotide": "ATTTATTG", "E-score": -0.204}
{"Oligonucleotide": "GCGTCATA", "E-score": 0.00741}
{"Oligonucleotide": "GTGACTTA", "E-score": -0.038}
{"Oligonucleotide": "CAGAAGGC", "E-score": -0.0434}
{"Oligonucleotide": "TGAACAAA", "E-score": -0.0518}
{"Oligonucleotide": "CGAACAAC", "E-score": -0.171}
{"Oligonucleotide": "CTCACTAA", "E-score": -0.0374}
{"Oligonucleotide": "GACCTACA", "E-score": -0.00329}
{"data": "Single results of other studies"}
{"Substance": "PhoQ, residues 284 288 289 292 302 303 SNSSNI", "target": "PhoP, residues 12 14 15 18 19 NYFTV (Escherichia coli, UniProt P23836)", "test": "Sort-seq, refers to: YFP reporter", "system": "E. coli", "conditions": "PhoQ-PhoP variant library, with: 10 µM Mg2+", "scale": "baseline: high Mg2+ state, higher = stronger signaling", "quantity": "fold induction", "result": 1.1}
{"note": "Some of these lines once more (sample 1):"}
{"Substitution": "V1K", "normalised enrichment score": 2.21}
{"Substitution": "D8Y", "normalised enrichment score": 1.59}
{"Substitution": "K6G", "normalised enrichment score": 0.821}
{"Substitution": "Q5A L7A", "normalised enrichment score": 0.149}
{"Substitution": "K6F", "normalised enrichment score": 0.74}
{"Substitution": "A3I", "normalised enrichment score": 2.98}
{"Substitution": "V4D", "normalised enrichment score": 0.211}
{"Substitution": "D11S", "normalised enrichment score": 1.08}
{"Substitution": "V1Y", "normalised enrichment score": 2.55}
{"Substitution": "D8V", "normalised enrichment score": 1.37}
